Measurements gathered from unrelated publications.
Protocols differ between the studies behind these lines. Numbers after ± are the reported error.
OXTR: Oxytocin receptor (OXTR, Homo sapiens, UniProt P30559)
UniProt P30559, sequence (whole entry, looked up): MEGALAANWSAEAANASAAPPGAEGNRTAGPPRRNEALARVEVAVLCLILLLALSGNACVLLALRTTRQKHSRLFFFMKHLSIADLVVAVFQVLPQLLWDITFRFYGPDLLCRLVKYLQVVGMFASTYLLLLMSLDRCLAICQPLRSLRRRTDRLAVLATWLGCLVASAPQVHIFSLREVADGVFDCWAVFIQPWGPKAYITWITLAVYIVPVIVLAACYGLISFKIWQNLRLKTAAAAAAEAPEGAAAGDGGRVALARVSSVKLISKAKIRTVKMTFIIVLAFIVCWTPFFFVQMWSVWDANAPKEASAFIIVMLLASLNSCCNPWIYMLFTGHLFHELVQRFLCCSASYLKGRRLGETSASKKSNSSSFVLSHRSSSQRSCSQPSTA
lasR: Transcriptional activator protein LasR (lasR, Pseudomonas aeruginosa, UniProt P25084)
UniProt P25084, sequence (whole entry, looked up): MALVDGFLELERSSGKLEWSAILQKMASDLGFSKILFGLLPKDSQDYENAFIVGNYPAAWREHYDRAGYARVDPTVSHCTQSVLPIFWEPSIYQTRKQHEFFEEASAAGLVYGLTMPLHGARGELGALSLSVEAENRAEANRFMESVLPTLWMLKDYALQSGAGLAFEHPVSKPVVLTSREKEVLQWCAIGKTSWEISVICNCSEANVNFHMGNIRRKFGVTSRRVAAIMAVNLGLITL
Histidine kinase AgrC: Histidine kinase AgrC (Listeria monocytogenes, UniProt A8E0G3)
sdiA: Regulatory protein SdiA (sdiA, Escherichia coli, UniProt P07026)
UniProt P07026, sequence (whole entry, looked up): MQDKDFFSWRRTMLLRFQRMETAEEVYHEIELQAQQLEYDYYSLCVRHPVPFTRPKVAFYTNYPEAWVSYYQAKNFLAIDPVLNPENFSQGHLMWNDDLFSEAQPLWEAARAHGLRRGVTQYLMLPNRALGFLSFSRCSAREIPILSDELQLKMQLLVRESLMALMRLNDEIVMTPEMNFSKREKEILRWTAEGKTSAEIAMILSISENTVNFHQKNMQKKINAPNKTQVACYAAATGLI
UniProt P10686, sequence (21-1215, looked up): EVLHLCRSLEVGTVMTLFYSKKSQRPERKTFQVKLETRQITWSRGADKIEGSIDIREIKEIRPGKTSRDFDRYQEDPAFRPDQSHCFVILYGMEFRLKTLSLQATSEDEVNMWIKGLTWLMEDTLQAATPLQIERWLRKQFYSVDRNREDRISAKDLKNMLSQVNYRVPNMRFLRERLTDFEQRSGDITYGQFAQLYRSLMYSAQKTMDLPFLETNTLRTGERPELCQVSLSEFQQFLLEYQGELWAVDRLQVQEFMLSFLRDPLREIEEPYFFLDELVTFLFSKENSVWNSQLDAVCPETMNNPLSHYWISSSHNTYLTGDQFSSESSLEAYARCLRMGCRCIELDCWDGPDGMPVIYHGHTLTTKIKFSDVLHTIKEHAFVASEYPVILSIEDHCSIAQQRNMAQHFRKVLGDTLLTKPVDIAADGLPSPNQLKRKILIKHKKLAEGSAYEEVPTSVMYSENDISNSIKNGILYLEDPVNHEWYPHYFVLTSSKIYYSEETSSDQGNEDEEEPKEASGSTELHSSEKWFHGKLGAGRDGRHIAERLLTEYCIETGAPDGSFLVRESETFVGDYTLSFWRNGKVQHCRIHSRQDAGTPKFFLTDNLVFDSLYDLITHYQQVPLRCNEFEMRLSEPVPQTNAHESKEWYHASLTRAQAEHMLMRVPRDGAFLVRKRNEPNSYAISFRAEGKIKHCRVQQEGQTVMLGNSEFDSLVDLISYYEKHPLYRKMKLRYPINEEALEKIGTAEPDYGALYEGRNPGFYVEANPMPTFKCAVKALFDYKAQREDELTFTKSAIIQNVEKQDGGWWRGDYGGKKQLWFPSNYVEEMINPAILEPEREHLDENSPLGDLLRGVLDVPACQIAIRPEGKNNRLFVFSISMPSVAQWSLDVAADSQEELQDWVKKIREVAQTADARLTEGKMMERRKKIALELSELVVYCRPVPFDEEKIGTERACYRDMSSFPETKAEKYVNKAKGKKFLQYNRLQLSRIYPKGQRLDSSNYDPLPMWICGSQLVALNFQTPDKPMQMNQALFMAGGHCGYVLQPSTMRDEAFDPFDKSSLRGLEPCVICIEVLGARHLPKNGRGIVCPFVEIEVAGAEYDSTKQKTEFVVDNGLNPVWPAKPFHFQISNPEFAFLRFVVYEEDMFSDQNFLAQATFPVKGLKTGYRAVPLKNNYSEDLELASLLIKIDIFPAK
UniProt P41143, sequence (whole entry, unmodified, looked up): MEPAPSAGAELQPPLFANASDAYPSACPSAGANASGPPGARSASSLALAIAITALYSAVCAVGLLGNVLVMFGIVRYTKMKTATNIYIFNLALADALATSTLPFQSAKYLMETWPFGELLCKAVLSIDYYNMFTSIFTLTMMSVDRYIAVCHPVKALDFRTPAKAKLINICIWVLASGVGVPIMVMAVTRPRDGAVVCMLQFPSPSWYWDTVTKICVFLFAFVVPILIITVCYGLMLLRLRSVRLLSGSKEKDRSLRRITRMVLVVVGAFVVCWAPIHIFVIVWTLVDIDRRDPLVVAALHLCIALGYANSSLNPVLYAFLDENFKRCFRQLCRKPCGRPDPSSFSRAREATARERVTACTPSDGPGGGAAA
UniProt Q03431, sequence (whole entry, looked up): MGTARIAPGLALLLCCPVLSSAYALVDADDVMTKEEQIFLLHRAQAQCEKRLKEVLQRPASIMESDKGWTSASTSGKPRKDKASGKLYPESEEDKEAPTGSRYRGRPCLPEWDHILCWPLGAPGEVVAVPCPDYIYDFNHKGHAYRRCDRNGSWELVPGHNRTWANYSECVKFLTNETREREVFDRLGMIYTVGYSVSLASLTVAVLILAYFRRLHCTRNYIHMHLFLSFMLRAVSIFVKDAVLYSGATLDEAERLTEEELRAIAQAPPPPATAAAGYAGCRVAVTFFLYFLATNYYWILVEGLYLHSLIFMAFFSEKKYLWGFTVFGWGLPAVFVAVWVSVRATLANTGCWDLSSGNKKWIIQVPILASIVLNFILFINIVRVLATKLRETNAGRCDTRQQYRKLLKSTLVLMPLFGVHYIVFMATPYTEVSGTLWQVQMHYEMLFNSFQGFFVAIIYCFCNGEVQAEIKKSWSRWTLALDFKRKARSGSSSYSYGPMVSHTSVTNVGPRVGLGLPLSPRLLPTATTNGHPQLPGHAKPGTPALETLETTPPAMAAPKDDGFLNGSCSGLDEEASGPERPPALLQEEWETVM
UniProt Q9UKP6, sequence (whole entry, unmodified, looked up): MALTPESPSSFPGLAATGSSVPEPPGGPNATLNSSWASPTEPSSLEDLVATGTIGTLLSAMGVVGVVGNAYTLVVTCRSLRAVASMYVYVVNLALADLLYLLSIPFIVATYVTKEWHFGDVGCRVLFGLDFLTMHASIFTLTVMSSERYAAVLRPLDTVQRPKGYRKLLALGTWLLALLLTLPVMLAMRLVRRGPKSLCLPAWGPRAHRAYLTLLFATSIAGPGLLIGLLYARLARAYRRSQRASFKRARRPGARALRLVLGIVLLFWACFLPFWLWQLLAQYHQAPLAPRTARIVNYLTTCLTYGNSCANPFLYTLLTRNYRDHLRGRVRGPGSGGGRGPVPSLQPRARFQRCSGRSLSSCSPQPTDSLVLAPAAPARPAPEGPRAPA
UniProt Q8BZ39, sequence (whole entry, looked up): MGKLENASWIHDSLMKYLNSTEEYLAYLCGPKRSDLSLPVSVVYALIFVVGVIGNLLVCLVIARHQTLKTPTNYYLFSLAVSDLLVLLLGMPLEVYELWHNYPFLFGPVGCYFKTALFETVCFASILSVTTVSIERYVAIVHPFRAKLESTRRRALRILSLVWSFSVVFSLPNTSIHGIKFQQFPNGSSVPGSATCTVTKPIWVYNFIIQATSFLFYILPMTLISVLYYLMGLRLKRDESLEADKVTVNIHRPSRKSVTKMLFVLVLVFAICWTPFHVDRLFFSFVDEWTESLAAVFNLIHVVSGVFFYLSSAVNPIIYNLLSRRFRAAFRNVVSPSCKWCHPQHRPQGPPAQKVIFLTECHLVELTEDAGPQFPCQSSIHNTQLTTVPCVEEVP
UniProt P35372, sequence (whole entry, looked up): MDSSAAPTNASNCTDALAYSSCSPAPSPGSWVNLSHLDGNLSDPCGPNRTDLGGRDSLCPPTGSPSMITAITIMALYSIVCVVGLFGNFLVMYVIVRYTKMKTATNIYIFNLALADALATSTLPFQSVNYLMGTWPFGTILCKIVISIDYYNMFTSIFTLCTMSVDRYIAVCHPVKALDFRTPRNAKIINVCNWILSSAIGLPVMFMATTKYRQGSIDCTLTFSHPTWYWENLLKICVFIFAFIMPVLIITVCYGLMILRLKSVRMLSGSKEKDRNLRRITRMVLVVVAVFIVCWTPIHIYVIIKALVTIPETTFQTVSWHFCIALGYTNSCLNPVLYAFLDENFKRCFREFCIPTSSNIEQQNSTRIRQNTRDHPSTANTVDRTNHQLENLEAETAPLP

SMILES	target	test	system	setting	EC50
CC[C@H](C)[C@@H]1NC(=O)[C@H](Cc2ccc(O)cc2)NC(=O)[C@@H](N)CSSC[C@H](N)C(=O)N[C@@H](Cc2ccc(O)cc2)C(=O)N[C@@H]([C@@H](C)CC)C(=O)N[C@@H](CCC(N)=O)C(=O)N[C@@H](CC(N)=O)C(=O)N[C@H](C(=O)N2CCC[C@H]2C(=O)N[C@@H](CC(C)C)C(=O)NCC(N)=O)CSSC[C@@H](C(=O)N2CCC[C@H]2C(=O)N[C@@H](CC(C)C)C(=O)NCC(N)=O)NC(=O)[C@H](CC(N)=O)NC(=O)[C@H](CCC(N)=O)NC1=O	OXTR	calcium signal, agonist, fluorescence	–	–	621 nM
CCCCCCCCCC(=O)CC(=O)NC1CCCCC1=O (stereo not shown)	lasR	reporter gene, agonist	ΔmexAB-oprM pump mutant	–	> 200000 nM
CSCC[C@@H]1NC(=O)[C@H](Cc2ccccc2)NC(=O)[C@@H](NC(C)=O)CSC(=O)[C@H](C(C)C)NC(=O)[C@H](Cc2ccccc2)NC1=O	Histidine kinase AgrC	–	–	–	46.3 nM
O=C(CCCOc1cccc(Br)c1)N[C@H]1CCSC1=O	lasR	reporter gene, agonist	ΔmexAB-oprM pump mutant	–	560 nM
CCCC[C@H](NC(=O)[C@H](CC(C)C)NC(=O)[C@H](CCC(N)=O)NC(=O)[C@@H](NC(=O)[C@H](CCC(=O)O)NC(=O)C(C)(C)NC(=O)[C@@H](NC(=O)C1(N)CCCC1)C(C)C)[C@@H](C)CC)C(=O)N[C@@H](Cc1c[nH]cn1)C(=O)N[C@@H](CCC(N)=O)C(=O)N[C@@H](CCCCNC(=N)N)C(=O)N[C@@H](C)C(=O)N[C@@H](CCCCNC(=O)[C@H](CCCNC(=N)N)NC(=O)CCCCCCCCCCCCCCCCC(=O)O)C(N)=O	PTH1R (Homo sapiens, UniProt Q03431)	cAMP, agonist, GloSensor	GP-2.3	20 min	0.38 nM
CSCC[C@H]1NC(=O)[C@H](Cc2ccccc2)NC(=O)[C@@H](NC(=O)[C@@H](N)CCCCN)CSC(=O)[C@H](C(C)C)NC(=O)[C@H](Cc2ccccc2)NC1=O	Histidine kinase AgrC	–	–	–	4.18 nM
O=C(Cc1ccc(Br)cc1)N[C@H]1CCOC1=O	sdiA	–	–	–	1.86 nM
Cc1cc(O)cc(C)c1C[C@H](N)C(=O)N[C@H](CCCNC(=N)N)C(=O)N[C@@H](Cc1ccccc1)C(=O)N(C)CC(=O)N(C)Cc1cc(C(F)(F)F)cc(C(F)(F)F)c1	OPRD1 (Homo sapiens, UniProt P41143, D210N)	agonist	–	–	1.91 ± 0.7 nM
CSCC[C@@H]1NC(=O)[C@H](Cc2ccccc2)NC(=O)[C@@H](NC(=O)[C@H](C)N)CSC(=O)[C@H](C(C)C)NC(=O)[C@H](Cc2ccc(O)cc2)NC1=O	Histidine kinase AgrC	–	–	–	5620 nM
CCCCCCCCCCCCCC(=O)CC(=O)N[C@H]1CCOC1=O	sdiA	–	–	–	191 nM
CCCCCCCCCCCCCCCCCC(=O)NC[C@H]1CC[C@H](C(=O)N[C@@H](CCC(=O)NCCCOCCOCCOCCCNC(=O)COCC(=O)N[C@@H](Cc2ccc(O)cc2)C(=O)NC(C)(Cc2ccccc2)C(=O)N[C@@H](CC(C)C)C(=O)N[C@@H](CCCC)C(=O)N[C@@H](CCCNC(=N)N)C(=O)N2CCC[C@H]2C(=O)N[C@@H](CCCNC(=N)NC)C(=O)N[C@@H](CC(N)=O)C(N)=O)C(=O)O)CC1 (stereo partly shown)	Neuromedin-U receptor 2 (Mus musculus, UniProt Q8BZ39)	beta-arrestin recruitment, agonist	–	–	3.1 nM
O=C(CCCOc1cccc(Br)c1)N[C@H]1CCSC1=O	sdiA	–	–	–	32.9 nM
CSCC[C@@H]1NC(=O)[C@H](Cc2ccccc2)NC(=O)[C@@H](NC(=O)[C@H](C)N)CSC(=O)[C@H](C(C)C)NC(=O)[C@H](Cc2ccccc2)NC1=O	Histidine kinase AgrC	–	–	–	29.7 nM
CC(C)[C@H](NC(=O)[C@@H]1CSSC(C)(C)[C@H](NC(=O)[C@@H](N)CC(=O)O)C(=O)N[C@@H](Cc2ccccc2)C(=O)N[C@@H](Cc2c[nH]c3ccccc23)C(=O)N[C@@H](CCCCN)C(=O)N[C@@H](Cc2ccc(O)cc2)C(=O)N1)C(=O)O	UTS2R (Homo sapiens, UniProt Q9UKP6, F274A)	IP1 accumulation, agonist, HTRF	HEK293T	1 h, 37 °C, F274A mutant, 6.51	39.8 nM
CCCCCCCCCC(O)CC(=O)N[C@H]1CCOC1=O (stereo partly shown)	sdiA	–	–	–	231 nM
CN(C)[C@H](CNC(=O)/C=C/c1cccc2ccccc12)Cc1ccc(O)cc1	Mu-type opioid receptor, with Gi2 (OPRM1, Homo sapiens, UniProt P35372)	receptor activation, agonist	–	–	10 ± 1 nM
O=C(Cc1cccc([N+](=O)[O-])c1)N[C@H]1CCSC1=O	sdiA	–	–	–	2.11 nM
CC(C)[C@@H]1NC(=O)[C@H](Cc2ccccc2)NC(=O)[C@H](C)NC(=O)[C@H](Cc2ccccc2)NC(=O)[C@@H](NC(=O)[C@H](C)N)CSC1=O	Histidine kinase AgrC	–	–	–	1980 nM
COc1ccc(CC(=O)N[C@H]2CCSC2=O)cc1	sdiA	–	–	–	5.7 nM
CCCCCCCCCCCCCC(=O)O[C@@H]1[C@@H](C)[C@@]2(O)[C@@H](C=C(CO)C[C@]3(O)C(=O)C(C)=C[C@@H]23)[C@@H]2C(C)(C)[C@]12OC(C)=O	1-phosphatidylinositol 4,5-bisphosphate phosphodiesterase gamma-1, residues 21-1215 (Rattus norvegicus, UniProt P10686)	enzyme activity, activator	lipid vesicles	15 min preincubation, with: XY-69 substrate 0.5 µM	10000 nM
CC[C@H](C)[C@@H]1NC(=O)[C@H](Cc2ccc(O)cc2)NC(=O)[C@@H](N)CSSC[C@@H](C(=O)N2CCC[C@H]2C(=O)N[C@@H](CC(C)C)C(=O)NCC(N)=O)NC(=O)[C@H](CC(N)=O)NC(=O)[C@H](CCC(N)=O)NC(=O)[C@H]([C@@H](C)CC)NC(=O)[C@H](Cc2ccc(O)cc2)NC(=O)[C@@H](N)CSSC[C@@H](C(=O)N2CCC[C@H]2C(=O)N[C@@H](CC(C)C)C(=O)NCC(N)=O)NC(=O)[C@H](CC(N)=O)NC(=O)[C@H](CCC(N)=O)NC1=O	OXTR	calcium signal, agonist, fluorescence	–	–	829 nM
O=C(Cc1ccc(Cl)cc1)N[C@H]1CCOC1=O	sdiA	–	–	–	3.56 nM
O=C(CCc1ccc(C(F)(F)F)cc1)N[C@H]1CCOC1=O	lasR	reporter gene, agonist	ΔmexAB-oprM pump mutant	–	8600 nM
CCCC(=O)CC(=O)N[C@H]1CCOC1=O	sdiA	–	–	–	3.84 nM
CSCC[C@@H]1NC(=O)[C@H](Cc2ccccc2)NC(=O)[C@@H](NC(=O)[C@H](C)N)CSC(=O)[C@H](C)NC(=O)[C@H](Cc2ccccc2)NC1=O	Histidine kinase AgrC	–	–	–	241 nM

For quick reference, copied from above:
SMILES	target	test	system	setting	EC50
CSCC[C@@H]1NC(=O)[C@H](Cc2ccccc2)NC(=O)[C@@H](NC(C)=O)CSC(=O)[C@H](C(C)C)NC(=O)[C@H](Cc2ccccc2)NC1=O	Histidine kinase AgrC	–	–	–	46.3 nM
CSCC[C@@H]1NC(=O)[C@H](Cc2ccccc2)NC(=O)[C@@H](NC(=O)[C@H](C)N)CSC(=O)[C@H](C(C)C)NC(=O)[C@H](Cc2ccc(O)cc2)NC1=O	Histidine kinase AgrC	–	–	–	5620 nM
